Measurements pooled from the literature.
Compare with care: the assays were run in different laboratories. Numbers after ± are the reported error.
POLB: DNA polymerase beta (POLB, Homo sapiens, UniProt P06746)
T1: G-quadruplex RNA, benzofuranyl uridine in loop (Homo sapiens); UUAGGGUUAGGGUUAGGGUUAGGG
T2: ssRNA, CCUG repeat; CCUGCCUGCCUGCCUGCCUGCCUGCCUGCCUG
Sequence of UniProt Q9HBW0 (whole entry, looked up): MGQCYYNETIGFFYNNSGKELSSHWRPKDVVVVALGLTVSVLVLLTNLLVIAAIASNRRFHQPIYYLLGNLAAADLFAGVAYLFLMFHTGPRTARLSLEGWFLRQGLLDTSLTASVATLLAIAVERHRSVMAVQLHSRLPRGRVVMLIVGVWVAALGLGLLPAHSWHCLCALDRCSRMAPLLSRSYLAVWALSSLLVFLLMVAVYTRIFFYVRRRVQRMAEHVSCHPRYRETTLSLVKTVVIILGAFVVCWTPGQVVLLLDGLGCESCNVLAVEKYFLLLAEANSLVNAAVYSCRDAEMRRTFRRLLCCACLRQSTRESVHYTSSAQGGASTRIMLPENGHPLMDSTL
Sequence of UniProt P49662 (whole entry, looked up): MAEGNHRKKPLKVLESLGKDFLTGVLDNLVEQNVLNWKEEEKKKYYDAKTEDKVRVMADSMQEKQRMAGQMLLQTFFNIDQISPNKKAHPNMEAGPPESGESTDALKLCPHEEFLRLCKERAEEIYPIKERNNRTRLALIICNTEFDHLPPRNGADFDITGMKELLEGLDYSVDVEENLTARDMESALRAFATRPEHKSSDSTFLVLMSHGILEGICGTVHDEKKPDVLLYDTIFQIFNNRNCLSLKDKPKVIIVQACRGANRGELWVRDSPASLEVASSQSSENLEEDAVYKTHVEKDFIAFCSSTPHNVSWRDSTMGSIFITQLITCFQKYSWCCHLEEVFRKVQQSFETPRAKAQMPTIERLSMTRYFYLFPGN
Sequence of UniProt P97438 (whole entry, looked up): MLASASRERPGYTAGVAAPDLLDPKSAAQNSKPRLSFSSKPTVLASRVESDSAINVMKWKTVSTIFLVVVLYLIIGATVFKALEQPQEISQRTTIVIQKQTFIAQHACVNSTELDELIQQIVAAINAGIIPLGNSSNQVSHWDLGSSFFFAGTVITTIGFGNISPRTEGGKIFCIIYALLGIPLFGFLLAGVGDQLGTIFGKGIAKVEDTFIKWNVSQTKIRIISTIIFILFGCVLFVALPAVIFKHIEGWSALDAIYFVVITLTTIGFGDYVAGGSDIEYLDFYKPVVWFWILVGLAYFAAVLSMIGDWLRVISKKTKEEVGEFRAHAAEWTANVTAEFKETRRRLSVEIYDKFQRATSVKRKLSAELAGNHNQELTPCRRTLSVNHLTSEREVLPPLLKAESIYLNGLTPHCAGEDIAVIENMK
Sequence of UniProt P53341 (whole entry, looked up): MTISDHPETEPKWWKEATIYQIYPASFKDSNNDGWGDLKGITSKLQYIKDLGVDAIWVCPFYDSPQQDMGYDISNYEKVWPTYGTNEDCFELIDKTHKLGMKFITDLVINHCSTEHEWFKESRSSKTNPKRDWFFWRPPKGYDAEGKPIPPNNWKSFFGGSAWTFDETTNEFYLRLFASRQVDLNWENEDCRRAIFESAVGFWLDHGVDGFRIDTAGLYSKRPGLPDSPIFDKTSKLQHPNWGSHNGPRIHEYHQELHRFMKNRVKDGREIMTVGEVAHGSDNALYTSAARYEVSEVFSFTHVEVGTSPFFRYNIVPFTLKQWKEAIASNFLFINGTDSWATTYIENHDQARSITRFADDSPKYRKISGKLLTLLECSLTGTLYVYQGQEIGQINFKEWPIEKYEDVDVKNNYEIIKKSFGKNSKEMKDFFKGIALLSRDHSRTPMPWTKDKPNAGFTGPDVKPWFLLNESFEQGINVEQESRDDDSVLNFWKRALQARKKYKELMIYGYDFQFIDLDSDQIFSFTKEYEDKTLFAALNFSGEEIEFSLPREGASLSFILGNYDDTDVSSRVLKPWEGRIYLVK
Sequence of UniProt P47872 (whole entry, looked up): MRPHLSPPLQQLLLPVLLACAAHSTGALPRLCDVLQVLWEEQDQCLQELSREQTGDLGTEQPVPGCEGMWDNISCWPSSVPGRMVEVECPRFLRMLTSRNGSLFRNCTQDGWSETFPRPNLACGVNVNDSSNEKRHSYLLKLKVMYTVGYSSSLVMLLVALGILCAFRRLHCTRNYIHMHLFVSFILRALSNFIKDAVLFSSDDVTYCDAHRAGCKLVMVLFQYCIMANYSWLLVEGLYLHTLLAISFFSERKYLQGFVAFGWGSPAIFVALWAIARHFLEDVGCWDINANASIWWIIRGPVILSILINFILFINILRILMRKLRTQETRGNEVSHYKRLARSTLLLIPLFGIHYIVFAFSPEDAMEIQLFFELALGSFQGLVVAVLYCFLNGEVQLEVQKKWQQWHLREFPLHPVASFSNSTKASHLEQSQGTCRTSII
Sequence of UniProt P05067 (whole entry, looked up): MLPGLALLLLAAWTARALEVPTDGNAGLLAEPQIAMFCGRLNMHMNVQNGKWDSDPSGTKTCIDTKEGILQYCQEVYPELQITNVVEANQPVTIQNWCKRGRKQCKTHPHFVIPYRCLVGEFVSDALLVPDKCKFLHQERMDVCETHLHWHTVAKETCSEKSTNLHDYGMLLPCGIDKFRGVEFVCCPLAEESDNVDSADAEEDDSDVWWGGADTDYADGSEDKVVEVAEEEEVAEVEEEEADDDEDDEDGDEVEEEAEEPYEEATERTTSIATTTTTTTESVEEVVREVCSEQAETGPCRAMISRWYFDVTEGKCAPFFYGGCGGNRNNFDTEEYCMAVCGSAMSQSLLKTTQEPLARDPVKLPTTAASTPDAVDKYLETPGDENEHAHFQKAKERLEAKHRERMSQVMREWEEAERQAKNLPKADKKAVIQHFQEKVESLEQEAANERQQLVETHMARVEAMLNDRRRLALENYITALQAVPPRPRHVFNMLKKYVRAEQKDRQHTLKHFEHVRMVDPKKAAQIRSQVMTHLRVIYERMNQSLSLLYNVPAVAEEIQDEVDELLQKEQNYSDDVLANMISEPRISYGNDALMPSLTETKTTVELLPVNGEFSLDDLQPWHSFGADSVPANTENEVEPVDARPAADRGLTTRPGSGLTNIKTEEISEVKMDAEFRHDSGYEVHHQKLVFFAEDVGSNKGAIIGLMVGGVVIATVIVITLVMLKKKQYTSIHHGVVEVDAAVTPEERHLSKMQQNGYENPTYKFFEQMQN

CC(C)C[C@H](N)C(=O)N[C@@H](C)C(=O)N[C@H](C(=O)N[C@@H](CCCCN)C(=O)N[C@@H](C)C(=O)N[C@@H](C)C(=O)N[C@@H](CCCNC(=N)N)C(=O)N[C@@H](CCCC[N+](C)(C)C)C(=O)N[C@@H](CO)C(=O)N[C@@H](C)C(=O)N1CCC[C@H]1C(=O)N[C@@H](C)C(=O)N[C@H](C(=O)NCC(=O)NCC(=O)N[C@H](C(=O)O)C(C)C)[C@@H](C)O)[C@@H](C)O
binding (EBS BAH domain Y49A/W70L/Y72A (Arabidopsis thaliana); concentration not given): inhibited

NC(=O)CN1C(=O)C(O)(CC(=O)c2cccc(N)c2)c2ccccc21 (centres unmarked)
ΔG (uncharacterized protein (Leishmania donovani, UniProt A0A3Q8IA09); competitive ITC; with: glutamate 60 µM): -7.79 kcal/mol

Cc1cn(C2CC(O)C(COP(=O)(O)OP(=O)(O)C(Cl)P(=O)(O)O)O2)c(=O)[nH]c1=O (mixture of isomers)
kpol/Kd (POLB; substrate, single turnover kinetics): 190000 ± 50000 M⁻¹ s⁻¹

NCCOc1cc(C(=O)Nc2cc(OCCN)c3ccccc3n2)nc(C(=O)Nc2cc(OCCN)c3ccccc3n2)c1
Kd (T1, G-quadruplex RNA, benzofuranyl uridine in loop (Homo sapiens); fluorescence titration; pH 7.5, 20 °C, NaCl 100 mM, apparent, parallel G-quadruplex): 268 nM

N=C(NCCCCNc1nc(N)nc(N)n1)c1ccc(C(=N)NCCCCNc2nc(N)nc(N)n2)cc1
Kd (T2, ssRNA, CCUG repeat; ITC; pH 7.0, 25 °C, NaCl 300 mM, lower limit, per strand): > 200000 nM

CCCCCCCC/C=C\CCCCCCCC(=O)O[C@H]1C=CCO[C@@H]1COP(=O)(O)S (some centres unmarked)
Emax (Lysophosphatidic acid receptor 2 (LPAR2, Homo sapiens, UniProt Q9HBW0); agonist, TGFα shedding): 39%

Oc1c(C(Nc2nccs2)c2ccccc2OCc2ccccc2)ccc2cccnc12 (centres unmarked)
Hill slope (Genome polyprotein, NS2B-NS3 protease (Dengue virus type 2, UniProt P14340); enzyme activity, inhibitor; 0.1% CHAPS, with: Bz-Nle-Lys-Arg-Arg-AMC substrate): 1.18 ± 0.05

Cc1cn([C@H]2C[C@H](O)[C@@H](COP(=O)(O)OP(=O)(O)C(Br)(Br)P(=O)(O)O)O2)c(=O)[nH]c1=O
kpol/Kd (POLB; substrate, single turnover kinetics): 4000 ± 1000 M⁻¹ s⁻¹

COc1ccc(-c2cc(C(F)(F)F)nc(SCC(=O)N(C)c3ccccc3)n2)cc1OC
increase of binding (Secretin receptor (SCTR, Homo sapiens, UniProt P47872); Fluo-Sec binding, TR-FRET; HEK293 membranes, SNAP-tagged receptor; concentration not given, with: Fluo-Sec): 60%

O=C(O)CCn1c2ccc(Cl)cc2c2cc(Cl)ccc21
Hill coefficient (Kcnk2 (Mus musculus, UniProt P97438); ion current, two-electrode voltage clamp; Xenopus oocytes): 2.1 ± 0.6

CN(C)c1ccc(C(=N/N=C/c2c(O)ccc3ccccc23)c2ccc(N(C)C)cc2)cc1
activity (Alpha-glucosidase MAL12 (MAL12, Saccharomyces cerevisiae S288c, UniProt P53341); enzyme activity, inhibitor; concentration not given, pH 6.8, 37 °C, with: p-nitrophenyl alpha-D-glucopyranoside): inactive

CC(=O)N[C@@H](CC(=O)O)C(=O)N[C@@H](CCC(=O)O)C(=O)N[C@H](C(=O)N[C@@H](CC(=O)O)C(=O)Nc1ccc2c(C)cc(=O)oc2c1)C(C)C
Vmax (Caspase-4 (CASP4, Homo sapiens, UniProt P49662); substrate cleavage, substrate, fluorogenic AMC release; enzyme 0.25 activity units/µL): 863 ± 31.6 RFU/min

[123I]c1ccc2nc(-c3ccc(-n4ccnn4)nc3)cn2c1
SUVR (Amyloid-beta precursor protein, amyloid-beta (APP, Homo sapiens, UniProt P05067); SPECT; Alzheimer's disease patients, Occipital cortex; 150 to 240 min; baseline: cerebellum): 1.01 ± 0.11

Nc1nc2c(ncn2[C@H]2C[C@H](O)[C@@H](COP(=O)(O)OP(=O)(O)[C@H](F)P(=O)(O)O)O2)c(=O)[nH]1
kpol (POLB; substrate, quench-flow kinetics; pH 8.0, 37 °C, incorporation opposite C in gapped DNA): 18 ± 3 s⁻¹

Some of these lines once more:
COc1ccc(-c2cc(C(F)(F)F)nc(SCC(=O)N(C)c3ccccc3)n2)cc1OC
increase of binding (Secretin receptor (SCTR, Homo sapiens, UniProt P47872); Fluo-Sec binding, TR-FRET; HEK293 membranes, SNAP-tagged receptor; concentration not given, with: Fluo-Sec): 60%

O=C(O)CCn1c2ccc(Cl)cc2c2cc(Cl)ccc21
Hill coefficient (Kcnk2 (Mus musculus, UniProt P97438); ion current, two-electrode voltage clamp; Xenopus oocytes): 2.1 ± 0.6
